Measured values from different studies.
A part holds a random share of what one study measured.

Study 1
Target: Ras GTPase-activating protein-binding protein 1, RRM domain (G3BP1, Homo sapiens, UniProt Q13283)
Sequence of UniProt Q13283 (whole entry, looked up): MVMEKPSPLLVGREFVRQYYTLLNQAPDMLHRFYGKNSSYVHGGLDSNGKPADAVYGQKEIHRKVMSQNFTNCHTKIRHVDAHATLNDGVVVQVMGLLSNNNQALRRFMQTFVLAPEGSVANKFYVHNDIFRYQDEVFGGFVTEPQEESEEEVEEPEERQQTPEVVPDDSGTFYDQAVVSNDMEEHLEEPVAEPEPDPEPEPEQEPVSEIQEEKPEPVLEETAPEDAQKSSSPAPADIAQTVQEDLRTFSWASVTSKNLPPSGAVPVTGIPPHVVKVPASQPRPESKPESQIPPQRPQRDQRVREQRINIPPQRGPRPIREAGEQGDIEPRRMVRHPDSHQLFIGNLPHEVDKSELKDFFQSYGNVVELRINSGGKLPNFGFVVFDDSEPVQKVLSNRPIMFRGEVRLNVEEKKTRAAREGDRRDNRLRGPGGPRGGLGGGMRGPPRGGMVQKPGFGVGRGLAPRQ
Technique: RNA Bind-n-Seq
Form: RNA
Matrix: in vitro
Tested at: 1 µM
Setting: whole 134-nt RNA, ends assumed
Added: 150 mM KCl
Relative to: input library
Reading: higher = stronger binding
Quantity: log2 enrichment
Shared flanks, not repeated: GGGAGUUCUACAGUCCGACGAUC … UGGAAUUCUCGGGUGUCAAGG
CACAGACAACACUCACCCACACAGACACAGAGGGAAGGGGUUGGGAUGGGGACAGGGUGCACAGCAGGGCGGGGUAGGACCCCAGCCCCU: 0.181
AAGUCCUGUGCUACACAUCGUAUGUACCGAAUCGGAAAAAAAGGUUUUUGGUUUGGAAAGUAUUAUGUUACGCCGUUCGGAUCUGCACUU: -0.349
CAAGUCCUGUGCUACACAUCGUAUGUACCGAAUCGGAAAAAAAGGAAAAAGGUGGAAAGUAUUAUGUUACGCCGUUCGGAUCUGCACUUC: -0.07
CACAGACAACACGCACCCGCACAGACACAGAGGGAAGGGGUUGGGAUGGGGACAGGGUGCACAGCAGGGCGGGGUAGGACCCCAGCCCCU: -0.166
AAGUCCUGUGCUACACAUCGUAUGUACCGAAUCGGAAAAAGGAAAAAAAGGAAAGGAAAGUAUUAUGUUACGCCGUUCGGAUCUGCACUU: -0.0232
AAGUCCUGUGCUACACAUCGUAUGUACCGAAUCGGGGAAAGGGGAAAGGGAAAGGGAAAGUAUUAUGUUACGCCGUUCGGAUCUGCACUU: 0.393
UCCUGUGCUACACAUCGUAUGUACCGAAUCGGGAAAAAAAGGGUUUUUUUGGGUUUGGGAAAGUAUUAUGUUACGCCGUUCGGAUCUGCA: -0.198
CUCAAGUCCUGUGCUACACAUCGUAUGUACCGAAUCGGGAAGGGGAAGGAAGGAAAGUAUUAUGUUACGCCGUUCGGAUCUGCACUUCCA: -0.316
AAGUCCUGUGCUACACAUCGUAUGUACCGAAUCGGAAAAAAAGGAAAAAGGUUUGGAAAGUAUUAUGUUACGCCGUUCGGAUCUGCACUU: -0.222

Study 2
Target: Histone acetyltransferase KAT6A, both winged helices, GST fusion (KAT6A, Homo sapiens, UniProt Q92794, residues 1-181)
Technique: protein binding microarray
Form: double-stranded DNA, one strand shown
Matrix: in vitro
Tested at: not given
Setting: 8-mer, flanks averaged, mean of 2 arrays, mostly near background
Relative to: not given
Reading: higher = stronger binding
Quantity: E-score
Residues (chain): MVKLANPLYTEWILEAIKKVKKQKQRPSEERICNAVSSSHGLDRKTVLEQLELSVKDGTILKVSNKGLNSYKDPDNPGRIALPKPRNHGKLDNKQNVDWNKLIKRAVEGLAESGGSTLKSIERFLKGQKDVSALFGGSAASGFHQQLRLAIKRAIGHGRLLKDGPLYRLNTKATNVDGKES
TCTAATCA: -0.0217
AGGAACTA: -0.208
ATCGAGAC: 0.00853
AGATGGCC: -0.0201
AAGCTAAG: -0.164
CGCCGGTC: 0.316
CGACGATC: 0.00302
GTCGAACA: 0.03
AAATGTGG: -0.103
CTTCCGCC: 0.252
AAACGAAG: -0.0865
GTGTTCCA: -0.0454
AGCGGGGC: 0.218
CGCTTGTC: 0.129
AATGGGGA: -0.207
CTAGGGTC: -0.229
CTGTGATA: -0.0592
GAAGTAAA: -0.209
ACTGCCTG: -0.0383
CTTCAGTA: 0.0265
ATAGAGGA: -0.283
AGACAGAG: -0.15

Study 3
Target: RNA binding protein fox-1 homolog 2, RRM domain, GST-SBP tag (RBFOX2, Homo sapiens, UniProt O43251-10, residues 100-194)
Technique: RNA Bind-n-Seq
Form: RNA
Matrix: in vitro
Tested at: 365 nM
Setting: natural RNA segment, single round, ends assumed
Relative to: no-protein control
Reading: higher = stronger binding
Quantity: RBNS enrichment (R)
Shared flanks, not repeated: GGGAGUUCUACAGUCCGACGAUC … UGGAAUUCUCGGGUGCCAA
Residues (chain): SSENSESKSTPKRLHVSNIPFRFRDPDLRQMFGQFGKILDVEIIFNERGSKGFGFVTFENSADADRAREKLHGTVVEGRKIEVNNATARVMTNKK
GGAUGGAGACUGGAACCAUCCUACUGCUGCCAGCUGGAAGCUUUUCUCAGAGAGCCAAAGCUGAAUUCUCAGAGCUCCAAGGCCCUCCACAAGAUGCUAGAGGAAGCUCA: 0.238
AUUGUUUUGUGACAGUAGAUGUGUUUAUAAUUUGAAGAUACCUGCUCAGAAGGCCAUAUUAUAGAAUGUCAUUUUUAAAAAAUAAAAUAUAAAGCAUACUUUCGAAAUAC: 0.92
UUUUAAAUAAUAUUGAAUUUAAAAAAAUGUAUUGCAGUAGUGUGUCAGUACCUUAUUGUUAAAGUGAGUCAGAUAAAUCUUCAAUUCCUGGCUAUUUGGGCAAUUGAAUC: 0.585
AUAGGCCCCUUGGACCGUGGGGAUGGCGGCCCUGAGAUUCUGUCAGUGGGACCACCCUGGGCCUCCUUUCUACCUCCACUCAGCACCCUGUUGGCCAAGGAGAAUUUCUG: 0.484
GGGUGUUCCUGUUUAACUUUCUGGGUUUGUUUGUUUUAUUUUAUUAGAAAGACACUUAUAUGACACUCAGGUGUCUGCUAUUUAUCUUGAUUUCUAAAUGGUUCUGGAUU: 1.74
UAAGAGAGCAUUGGUUUGUUAAAGAGCUUUCAAUGUAUAUUAAAACCUUCAAUACUCAGAAAUGAUGGAUUCCUCCAAGGAGUCCUUUACUAGCCUAAACAUUCUCAAAU: 0.482
UUUUGUUGAUGAGUUGUAUACUGAUGCACACAUUACAGGAGAGAGCUGAACGUUCUCUCAGCCCAGAGCAGCAAACACAUGAAAGUCAGAAGUCUCUAAUAUAUCAUUUG: 0.245
ACCUCGCUCUAAUGGCUUAACAGUUGUUCUGGGUGGAAACGUCCCCUCAUUUGAAUGCUCCUCUAAAAAAAAAAGAAAAGAAAACUGUAUUCAUUCCCUUUAAAAUGAAA: 0.646

Study 4
Target: Prothrombin, mature alpha-thrombin (F2, Homo sapiens, UniProt P00734)
Technique: aptamer microarray, sandwich
Form: DNA with 2'F-ANA
Matrix: in vitro
Tested at: 200 nM
Setting: whole 15-mer aptamer, many near background
Added: Cy3 exosite-II aptamer, 400 nM
Reading: higher = stronger binding
Quantity: mean fluorescence intensity
Sequence: GGTTGGTGTGGTTGG
2'F-ANA at 2 5 7 8 9 11 14 15: 114 a.u.
2'F-ANA at 2 4 5 7 9 12 13 14 15: 45 a.u.
2'F-ANA at 2 4 11 15: 262 a.u.
2'F-ANA at 1 3 5 6 8 9 10 11 14: 64.2 a.u.
2'F-ANA at 1 2 4 6 7 8 9 11 12 13 14: 52.2 a.u.
2'F-ANA at 3 5 8 9 12 15: 275 a.u.
2'F-ANA at 1 2 3 4 7 8 9 11 12 13: 239 a.u.
2'F-ANA at 3 5 7 9 14: 56 a.u.
2'F-ANA at 1 3 11: 508 a.u.
2'F-ANA at 1 3 7 8 11 12 15: 553 a.u.
2'F-ANA at 1 3 4 5 8 11: 53.4 a.u.
2'F-ANA at 5 7 8 11 13 14: 44.7 a.u.
2'F-ANA at 2 4 5 8 10 15: 63.9 a.u.
2'F-ANA at 4 5 6 9 11 13 14: 51.2 a.u.
2'F-ANA at 2 3 4 5 7 9 10 11 14 15: 47.9 a.u.
2'F-ANA at 1 2 3 4 5 8 9 10 11 14: 63.1 a.u.
2'F-ANA at 1 2 4 5 7 8 10 11 14 15: 43.9 a.u.
2'F-ANA at 1 6 9 10 14 15: 49.1 a.u.
2'F-ANA at 1 4 5 8 9 11 14: 43.3 a.u.
2'F-ANA at 1 3 4 7 8 10 12: 97.8 a.u.
2'F-ANA at 1 10 11 12 14 15: 125 a.u.

Excerpt of the above (study 4):
2'F-ANA at 3 5 8 9 12 15: 275 a.u.
2'F-ANA at 1 2 3 4 7 8 9 11 12 13: 239 a.u.
2'F-ANA at 3 5 7 9 14: 56 a.u.
2'F-ANA at 1 3 11: 508 a.u.
2'F-ANA at 1 3 7 8 11 12 15: 553 a.u.
2'F-ANA at 1 3 4 5 8 11: 53.4 a.u.
2'F-ANA at 5 7 8 11 13 14: 44.7 a.u.
2'F-ANA at 2 4 5 8 10 15: 63.9 a.u.
2'F-ANA at 4 5 6 9 11 13 14: 51.2 a.u.
2'F-ANA at 2 3 4 5 7 9 10 11 14 15: 47.9 a.u.
